Measured values collected from several papers.
Lines come from different studies, so protocols differ. ± gives the spread as reported.

| SMILES | cell line | test | conditions | IC50 |
| --- | --- | --- | --- | --- |
| CC(C)=CCC1=C([O-])C(=O)c2ccccc2C1=O.CC(C)=CCC1=C([O-])C(=O)c2ccccc2C1=O.[Cu+2].c1ccc(-c2ccnc3c2ccc2c(-c4ccccc4)ccnc23)cc1 | HOS | cell viability, MTT | 24 h | 1.4 ± 0.4 µM |
| Cc1cc(C=O)cc(C)c1Oc1cc(Nc2ccc(C#N)cn2)nc2cnccc12 | H69AR (multidrug resistant) | – | 48 h | > 126 µM |
| N#Cc1cccc(-c2ccc(=O)n(Cc3cccc(-c4ncc(OCC5CCN(CCC(=O)Nc6cccc7c6C(=O)N(C6CCC(=O)NC6=O)C7=O)CC5)cn4)c3)n2)c1 (stereo not shown) | Hs746T | cell growth or viability, CCK-8 | 72 h | 0.0756 µM |
| Cc1cc(C#N)cc(C)c1Oc1cc(Nc2ccc(C#N)cc2)nc2cnccc12 | H69AR (multidrug resistant) | – | 48 h | > 128 µM |
| CC(C)Cc1ccc(C(C)C(=O)[O][Pt]([NH2])([NH2])([Cl])([Cl])[O]C(=O)C(Cl)Cl)cc1 (stereo not shown) | six human cancer lines | cytotoxicity, MTT | – | 0.41 µM |
| CC1=NN(C(N)=S)C(c2ccccc2)C1 (stereo not shown) | human Skin fibroblast | cell growth or viability, LDH | 48 h | 18.2 µM |
| N#Cc1c(F)c(Cl)c2nc(SCC3CCCO3)nc(N)c2c1F (stereo not shown) | SGC-7901 | cell growth or viability, MTT | 96 h | 5.45 µM |
| COc1cc2c(cc1OC)-c1nc(NN=C(Cc3ccccc3[N+](=O)[O-])C(=O)O)sc1CO2 (mixture of isomers) | CRL-2351 | cell growth, sulforhodamine B | 5 days | > 20 µM |
| CC(=O)Oc1ccccc1C(=O)[O][Pt]([NH2])([NH2])([Cl])([Cl])[O]C(=O)C(Cl)Cl | six human cancer lines | cytotoxicity, MTT | – | 0.7 µM |
| CCn1c2ccccc2c2cc(C(O)c3cccc4ncccc34)ccc21 (stereo not shown) | sample B patient-derived glioma cells | tumour microtube length per cell | 24 h | 0.014 µM |
| CC12CCCC(n3cc(C(=O)N4CC(N)C4)nn3)(C1)C1CC(C)(C)C1CC2 (stereo not shown) | NCM460 | cell growth or viability, CCK-8 | 72 h | 18.7 µM |
| COc1ccc([C@@H]2CC(=O)c3c(O)cc(O[C@@H]4O[C@H](CO[C@@H]5O[C@@H](C)[C@H](O)[C@@H](O)[C@H]5O)[C@@H](O)[C@H](O)[C@H]4O)cc3O2)cc1O | A549 | cell growth or viability, trypan blue | 72 h | 92.9 µg/mL |
| Cc1cn([C@@H]2O[C@H](CSSc3ccccn3)[C@@H](O)[C@H](F)[C@H]2O)c(=O)[nH]c1=O | FM3A | cell growth or viability | – | > 200 µM |
| COCCSc1nc(N)c2c(F)c(C#N)c(F)c(Cl)c2n1 | SGC-7901 | cell growth or viability, MTT | 96 h | 7.34 µM |
| CN1CCCNC(=O)CCC(=O)NCCCN(C)CCCNc2cccc3c2C(=O)c2cccc(c2C3=O)NCCC1 | ASF-4-4L2 | cell proliferation, CCK-8 | 48 h | 8.2 µM |
| CC1CCC(NC(=O)N(C)c2cnc3ccc(-c4ccc(OCCCCCC(=O)NO)nc4)cc3n2)CC1 (stereo not shown) | NTERA-2-cl-D1 | cell growth or viability, MTT | 48 h | 0.12 µM |
| C=C1CCC(O)C(C)=CCC2C1CC2(C)O (stereo not shown) | KPC | cell viability, CCK-8 | 72 h | > 50 µM |
| CC/C(=C(\c1ccc(O)cc1)c1ccc(OCCN(C)CCOCCOCCOCCOCCOCCOCCOCCOCCOCCN(C)CCOc2ccc(/C(=C(/CC)c3ccccc3)c3ccc(O)cc3)cc2)cc1)c1ccccc1 | MDA-MB-231 (ER-negative) | cell growth | 96 h | 14 µM |
| N#Cc1cccc(-c2ccc(=O)n(Cc3cccc(-c4ncc(OCC5CCN(CC(=O)NCCOCCOCCNc6ccc7c(c6)C(=O)N(C6CCC(=O)NC6=O)C7=O)CC5)cn4)c3)n2)c1 (stereo not shown) | Hs746T | cell growth or viability, CCK-8 | 72 h | 0.00619 µM |
| Cc1ccc(NC(=O)c2c(C)oc3ccc(O)c(CN4CCCCCC4)c23)cc1 | AMO1 | cell growth or viability, MTS | 72 h | 11.3 µM |
| Cc1c(C(=O)NNC(=S)Nc2ccc(Cl)cc2)nnn1Cc1nc2ccccc2[nH]1 | HepG2, HCT-116, MCF7, HeLa | cell viability, MTT | 48 h, range over cell lines | 1 to 10 µM |
| O=[N+]([O-])[O-].O=[N+]([O-])[O-].[Cu+2].[Cu+2].c1ccc(-c2nc(-c3ccc4c(c3)OCO4)n[n-]2)nc1.c1ccc(-c2nc(-c3ccc4c(c3)OCO4)n[n-]2)nc1 | T24 | cell growth or viability, MTT | 24 h | 3.53 µM |
| CC/C(=C(\c1ccc(O)cc1)c1ccc(OCCN(C)CCOCCOCCOCCOCCN(C)CCOc2ccc(/C(=C(/CC)c3ccccc3)c3ccc(O)cc3)cc2)cc1)c1ccccc1 | MDA-MB-231 (ER-negative) | cell growth | 96 h | 1.23 µM |
| C=CC(=O)N1C[C@H](C)N(c2nc(OC[C@@]34CCCN3C[C@H](F)C4)nc3c(F)c(-c4ccc(F)c5sc(N)c(C#N)c45)c(C(F)(F)F)cc23)C[C@H]1C | A-375 (BRAF V600E) | HTRF, measured: pERK | 2 h | > 10 µM |
| N=C(N)Nc1nc2ccccc2[nH]1 | BPH-1 | cell growth or viability, MTT | 24 h | > 500 µM |
| C[n+]1c(/C=C/c2ccc(N(c3ccccc3)c3ccccc3)cc2)cc(/C=C2\Sc3ccccc3N2CCCN2CCCC2)c2ccccc21 | Raji | cell growth or viability | 36 h | 0.73 µM |

| SMILES | cell line | test | conditions | IC50 |
| --- | --- | --- | --- | --- |
| C=CCSc1nc(N)c2c(F)c(C#N)c(F)c(Cl)c2n1 | SGC-7901 | cell growth or viability, MTT | 96 h | 6.34 µM |
| CC(=O)Oc1c2c(c3ccc4c(c3c1OC(C)=O)C=CC(=O)C4(C)C)OC[C@@H]2C | mouse Neutrophil | cell growth or viability, CCK-8 | 24 h | 7.16 µM |
| C[N+]1(C)CC[NH2+][Pt-2]1([OH])([Cl])([Cl])[O]C(=O)CCC(=O)O | SW1573 | cell growth or viability | 96 h | 151 µM |
| COc1cc(/C=N/NC(=O)c2cc3cc(Nc4nccc(-c5cccnc5)n4)ccc3[nH]2)cc(OC)c1 | LO2 | cell viability, MTT | 48 h | > 50 µM |
| C=C(C)[C@@H]1CC[C@]2(C(=O)O)CC[C@]3(C)[C@H](CC[C@@H]4[C@@]5(C)CC[C@H](O[C@@H]6O[C@@H](C)[C@H](OC)[C@@H](O)[C@H]6O)C(C)(C)[C@@H]5CC[C@]43C)[C@@H]12 | human Skin fibroblast | cell growth or viability | 48 h | 21 µM |
| COc1ccc(C[C@H]2COC(=O)[C@@H]2Cc2ccc(OCCCCCCCC(=O)NO)c(OC)c2)cc1OC | KU812 | cell growth or viability, CCK-8 | 48 h | 2.27 µM |
| CC(C)C1OC(=O)C(NC(=O)c2cccc(O)c2)C(C)OC(=O)C(C(C)C)OC(=O)C(C)(C)C(=O)C(Cc2ccccc2)OC1=O (stereo not shown) | NCM460 | cell viability, CCK-8 | 72 h | > 50 µM |
| CC12CCCC(n3cc(C(=O)N4CCC(N)CC4)nn3)(C1)C1CC(C)(C)C1CC2 (stereo not shown) | NCM460 | cell growth or viability, CCK-8 | 72 h | 15.4 µM |
| COc1cc(/C=C/C(=O)/C=C(O)/C=C/c2ccc(OCC(=O)N3CCOCCOCCOCCOCC3)c(OC)c2)ccc1OCC(=O)N1CCOCCOCCOCCOCC1 | SK-LU-1 | cell growth or viability, SRB | – | 9.3 µM |
| COc1cc(-c2cc(=O)c3c(O)cc(OC4OC(COC5OC(C)C(O)C(O)C5O)C(O)C(O)C4O)cc3o2)ccc1O (stereo not shown) | U87MG.ΔEGFR glioblastoma | cytotoxicity, resazurin reduction | 72 h | 38.1 ± 3 µM |
| CCN(CC)CCN1C(=O)c2ccc3c4cccc5cccc(c6ccc(c2c36)C1=O)c54 | A549, PC-3, HL-60 | cytotoxicity, SRB | 72 h, range over three lines | 3.1 to 7.4 µM |
| CC(C)c1cccc(C(C)C)c1-n1c2c([n+](-c3c(C(C)C)cccc3C(C)C)[c]1[Au-][Cl])-c1cccc3cccc-2c13 | CHO | cell growth or viability, MTT | 72 h | > 50 µM |
| C[C@H](CCC=O)[C@@H]1CC[C@]2(C)C3=C(CC[C@@]12C)[C@@]1(C)CC[C@H](O)C(C)(C)[C@@H]1CC3 | SK-LU-1 | cell growth or viability, SRB | – | 39.9 µM |
| CC1OC(OCC2OC(Oc3cc(O)c4c(=O)cc(-c5ccc(O)c(O)c5)oc4c3)C(O)C(O)C2O)C(O)C(O)C1O (stereo not shown) | U87MG.ΔEGFR glioblastoma | cytotoxicity, resazurin reduction | 72 h | 48.2 ± 4 µM |
| CCC1=C(CC)C2=[N+]3C1=Cc1c(CC)c(CC)c4[n]1[Ir-3]31([n+]3ccccc3)([n+]3ccccc3)[n]3c(c(CC)c(CC)c3=CC3=[N+]1C(=C4)C(CC)=C3CC)=C2.Cl | HCC827 | cell growth or viability, MTT | 72 h | 1.27 µM |
| COc1ccc(-c2ocnc2-c2cc(Br)c(OC)c(OC)c2)cc1OCCCC(=O)NO | EGI-1 | cell growth or viability, crystal violet | 48 h | 0.6 µM |
| OC[C@H]1[C@@H](O)[C@@H](O)CN1CCc1ccccc1 | HCT116 p53-/- | MTS | 72 h | > 200 µM |
| N#Cc1cccc(-c2ccc(=O)n(Cc3cccc(-c4ncc(OCC5CCN(CC(=O)NCCOCCNc6ccc7c(c6)C(=O)N(C6CCC(=O)NC6=O)C7=O)CC5)cn4)c3)n2)c1 (stereo not shown) | Hs746T | cell growth or viability, CCK-8 | 72 h | 0.00589 µM |
| O=C(Nc1ncnc2c1ncn2[C@@H]1O[C@H](CO)[C@@H](O)[C@H](F)[C@H]1O)c1ccccc1 | FM3A | cell growth or viability | – | > 200 µM |
| COC(=O)[C@@H]1[C@@H](OC)[C@H](OC(=O)c2cc(OC)c(OC)c(OC)c2)C[C@@H]2CN3CC[C@]4(O[C@@H]3C(=O)[C@@H]21)C(=O)Nc1cc(OC)ccc14 | SUP-T1 | cell growth or viability, trypan blue | 72 h | 2.85 µM |
| O=C(NO)c1ccc(Cn2sc3ccccc3c2=O)cc1 | U-266 | cell growth or viability, ATP luminescence | 72 h | 14.5 µM |
| CC1=CC2(C)C(=C(C)C3C4CC(C)CC(C)C4C4Oc5ccc(cc5)CC5(O)NC(=O)C(=C(O)C2C43)C5Nc2ncnc3c2ncn3C2OC(CO)C(O)C2O)C1C (stereo not shown) | Ramos | cell growth or viability, resazurin | 72 h | 3.3 µM |
| N#Cc1c(-c2ccc(Cl)cc2)cc(-c2cccc3ccccc23)n2c(Cc3ccccc3)nnc12 | U-937 | cell growth or viability, MTT | 72 h | 1.86 µM |
| CCCC(CCC)C(=O)[O][Pt]1([OH])[O]C(=O)C(=O)[O]1.NC1CCCCC1N | seven cancer cell lines | cytotoxicity | mean over panel | 40.7 µM |
| O=c1[nH]c(=O)n([C@@H]2O[C@H](CSSc3ccccn3)[C@@H](O)[C@H](F)[C@H]2O)cc1F | FM3A | cell growth or viability | – | 35 µM |
| Cc1cc([C@H](C(=O)N2C[C@H](O)C[C@H]2C(=O)N[C@@H](CC(=O)N2CCC(N3CCC(C#Cc4ccc(C(=O)N[C@H]5C(C)(C)[C@H](Oc6ccc(C#N)c(Cl)c6)C5(C)C)cc4)CC3)CC2)c2ccc(-c3scnc3C)cc2)C(C)C)on1 | HCC1428 | cell growth or viability | 7 days | 0.121 µM |

A few entries again:
| SMILES | cell line | test | conditions | IC50 |
| --- | --- | --- | --- | --- |
| COC(=O)[C@@H]1[C@@H](OC)[C@H](OC(=O)c2cc(OC)c(OC)c(OC)c2)C[C@@H]2CN3CC[C@]4(O[C@@H]3C(=O)[C@@H]21)C(=O)Nc1cc(OC)ccc14 | SUP-T1 | cell growth or viability, trypan blue | 72 h | 2.85 µM |
| CC12CCCC(n3cc(C(=O)N4CC(N)C4)nn3)(C1)C1CC(C)(C)C1CC2 (stereo not shown) | NCM460 | cell growth or viability, CCK-8 | 72 h | 18.7 µM |
| O=[N+]([O-])[O-].O=[N+]([O-])[O-].[Cu+2].[Cu+2].c1ccc(-c2nc(-c3ccc4c(c3)OCO4)n[n-]2)nc1.c1ccc(-c2nc(-c3ccc4c(c3)OCO4)n[n-]2)nc1 | T24 | cell growth or viability, MTT | 24 h | 3.53 µM |
| O=C(NO)c1ccc(Cn2sc3ccccc3c2=O)cc1 | U-266 | cell growth or viability, ATP luminescence | 72 h | 14.5 µM |
